# Assay results collected from several papers.
# Parts stem from different laboratories: compare values within a part only.

# Series 1 — technique: RNA Bind-n-Seq; molecule type: RNA; sample: in vitro; tested at: 365 nM; relative to: no-protein control; direction: higher = stronger binding
# Target: RNA binding protein fox-1 homolog 2, RRM domain, GST-SBP tag (RBFOX2, Homo sapiens, UniProt O43251-10, residues 100-194)
# Notes: natural RNA segment, single round, ends assumed
# Shared flanks, not repeated: GGGAGUUCUACAGUCCGACGAUC … UGGAAUUCUCGGGUGCCAA
# Target sequence (chain): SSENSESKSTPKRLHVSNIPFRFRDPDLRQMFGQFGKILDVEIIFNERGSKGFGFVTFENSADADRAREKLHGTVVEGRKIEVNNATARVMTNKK
Oligonucleotide,RBNS enrichment (R)
UACCUUUUGGGAUGAUUGCUCGAUUGUUUGGUUUUUAAAUCUGAGAAGCCUAGAUAACUAAUCUGCUUUUAAUCACGAUGUUUUAAUCUACCUCUGUCUCUUUAACCAUG,0.353
GUUAACUUCAUUCUUUCCUGCUGUUAGGAACAUAGGCCUAAAAUUGUCUCUUGAGUUUGCUCACCCUUUUGUUUUGGUAGGGUUUUUUUGUUGUUGCUGUUAUUGUUUCU,1.32
UCAGCCAAAGCAAAAGAUGGCUGCUGCUUUGUAGGCAUGUGCCUGCAAGUGGGACCUUGCUGGGCAUUAUAUGCCCUGUGGGGGUUUCAGAGACCCUGAAAGAGGAGGGA,0.287
UUUUUGCAGAUUCUUGGCUGGGUUUAGUGUACUGAUCUAGAAAAGCUGUUUUUCUGCUCCUUUGUGGAAGGCAGUUAUGAUCAGGCUGCAUGGACAAAGCAGGUAGAGGG,0.303
AGUGGGAACGCCCUCGACUUUGCCCUCCUCCGGAGCAUCUCUGGGACGCAGGGAGUCUGGCUAGCGUUAAUAGGAAAGGUUGCUCGGCAGAGCUGCCCUGGAGUACUGAC,0.309
UCCUUGGAACUGGGUGUUGGUGUCCAUGGAACUUCCUCUCUGUAUCUCAGGUCAGUAGGCGCAGAAACGCCUCAUGAUGAAGAUUCUUGAGCCCCAUUUCCAAGACCCCU,0.266
CCCAAGGGGCUGCAUGACCCUGGGGUGCCCCACACAGUUCAGCCCUGCCUGGCAGGGACGCCAGUACUACUGUAACUGCAGCAGGAGCUGCCCGGCCUGCCUUCUGGCCC,2.42
AUACAGCAGUCAGAGAUGAGUAUACUAGAAUCAUGGAUUGCUGGAGGUCUUUUAAUCUGAUGUUCUCAGAAGGGGGUGGAUUUAAAUCCUGAAAUAAAUAUUUCAACACA,0.621
UUUUAGCAGCAGCUAAAAGGCCUGUAGUUUUACUCUCUCUCUCCUCUCUCUCUCUCUCUCUCUCUCUCUCCCUCUCUCCUCUCUGUCUUCAUCAUCUUUGAGAUCAUUAG,1.27
AAGCUGUUUAAGAAGGCCAUGACUCUUUAGGUGUGUAUGUGUACCUUUCAGCAUCCUAGGAAUUUUUAUACUAAAAGCAAAAUGUUUUUUCCAGUUAGUCUUCUUCAAGG,0.623
GCUUCCCCGUGACUAGGAAUUUAGCCAUAAGACUAGUUCAAGGCUAACCACCAAGCUUCCCUUUGACUGGCUCCAAAGGCUUUUAUUUAAGUGAGAUGGAAAAGCUGAAU,0.39
AGCCUUUUGCAUGCGGGUAUUAUAUAAUAAUGAAUGGGUGGCUCCUAGUAGCAUGCAACCCAUGACUGUUUACUUCCCUAAAAGGGUUAGGUCUGUGUCCUGCACAGUGU,41.8

# Series 2 — technique: RNA Bind-n-Seq; molecule type: RNA; sample: in vitro; tested at: not given; relative to: input RNA pool; direction: higher = stronger binding
# Target: RING finger protein unkempt homolog, zinc fingers 1-6, GST-SBP tag (UNK, Homo sapiens, UniProt Q9C0B0, residues 30-357)
# Notes: RNA with constant flanks, human and mouse sites, ends assumed
# Shared flanks, not repeated: GGGAGUUCUACAGUCCGACGAUC … CAACAGAGGAUUGAGCAUCA
# Residues (chain): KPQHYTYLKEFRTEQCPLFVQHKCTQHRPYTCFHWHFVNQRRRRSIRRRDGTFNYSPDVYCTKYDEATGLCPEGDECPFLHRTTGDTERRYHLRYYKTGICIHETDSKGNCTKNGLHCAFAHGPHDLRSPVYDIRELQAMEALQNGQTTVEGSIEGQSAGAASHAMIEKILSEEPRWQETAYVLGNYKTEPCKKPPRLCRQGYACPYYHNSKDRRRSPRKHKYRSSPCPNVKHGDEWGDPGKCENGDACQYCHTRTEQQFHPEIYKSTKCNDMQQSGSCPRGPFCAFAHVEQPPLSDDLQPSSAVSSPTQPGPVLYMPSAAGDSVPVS
Oligonucleotide,bound/input enrichment [ratio]
UUGUGCCUCAGCAAACACAGGCGUGGAUAGAUGUUGUCUUUCUUUUGUUUUUCUAGGUGUAUCCCUAGAUGCUGCCCGUGUUUUCAAGAUGGCAGGGGUGGGAAGGGAGAGAAAGGAAGA,0.204
AGGCUAGAAAAAGAAAUUUCUAAGUUAAAGCAGCAAAAUGAACAGCUAAUAAAACAAAAGAAUGAAUUGUUAAGCAAUAAUCAGCAUCUUUCCAAUGAGGUCAAAACUUGGAAGGAAAGA,0.412
UUUAAAACAGGUCUAAAGGCUUUGAUGACAGUAGGGAAAGAACCAUUUCCUACCAUUUACGUAGAUUCACAAAAAGAAAAUGAGAGGUGGAAUGUUAUUUCUAAAUCACAGUUGAAGAAC,0.195
UGUGAACUGUCUCUUGAGAUCUAAAAACAAGAUGACUUUUCCUGGCACAUAUUCCAAAGCAAAGACUUUGUUGCCUGCUGCUUAUUGUCUAAUUUACAGGGAUAUUUAAUUUUGUCAGGU,0.116
GCUGUCAUGUACGUGUGCAAAGUGGCGGCCGAGUGGAGGAGCACCUUCCACAAGGACGUGGUUGUCGAUUUGGUGUGUUACCGGCGCAACGGCCACAACGAGAUGGAUGAGCCCAUGUUC,0.0443
AAGUACUUAGCCCAGCUGCUGAACAGUGUACGGUUACCAUUGCUGAGCGUUAAGUUCCUCACUAGGCUCUAUGAAGCGAAUCAUCUUAUCCGUGAUGAUCGCACCUGUAAACAUCUCUUG,0.405
AGGAAUGUUGAAGAGAACUCCAAAAAGAAACAGCAAUAUGAAGAAGAUUCCAAAGAAACCCUUAAAACAAGUGAGCAUUGUGAAAAGGAAAAAAUUUCUUCUUCAAAGGAGCUGAAGCAU,0.12
UGCCUUGGUGAAUUGCUAACGUUAGUUACAUUUGGUUGCUCUAUAGAAUUUGGGCCAGCUGAAUUUAUUCCUCUUCAUCCACUAAUAACGUAUAGACCACAGCAGCUUCCAUUUCAAGAU,0.487
UACAACAUGGCCUCAGUCGACUUUGAUGGCUUCUUUGCCGCCUUCCUCCCAGAGUUCCUGACCAGCUGUGAUGGUGUGGAUGCCAACCAGAAAAGUGUGCUGGGGCGGAAUUUCAAGAUG,0.117
ACCUUAGCUGUGGGACUCAUCAACAUGGCAGAGGUGAUGCAACACCCUAAUGAGGGCGCUUUAGUACUUGGCCUGCACAGCAAUGUGAAGGAUGUCUCUGUGCCAGUGGCAGAAAUAAAA,0.178
AAAUGCUCAGUUCUAACUAAUGAAAUGGAUUUCCCAGUAGGGGUUUCUGCAUAUCACCUGUAUAGUAGUUAUAUGCAUAUGUUUCUGUGCAUGUUCUCUACACAAUUGUAAGGUGUCACU,0.297

# Series 3 — technique: aptamer microarray, sandwich; molecule type: DNA with 2'F-ANA; sample: in vitro; tested at: 200 nM; with: Cy3 exosite-II aptamer, 400 nM; direction: higher = stronger binding; oligonucleotide: GGTTGGTGTGGTTGG
# Target: Prothrombin, mature alpha-thrombin (F2, Homo sapiens, UniProt P00734)
# Notes: whole 15-mer aptamer, many near background
Modification,mean fluorescence intensity [a.u.]
2'F-ANA at 1 5 11 13,48
2'F-ANA at 1 2 3 4 6 9 14 15,55.5
2'F-ANA at 2 3 5 6 8 9 15,96.6
2'F-ANA at 1 3 4 10 11 12 15,80
2'F-ANA at 2 7 10 11 15,123
2'F-ANA at 2 7 8 10 14 15,86.2
2'F-ANA at 2 3 5 7 8 9 14 15,59.6
2'F-ANA at 2 5 6 7 10 12 13 14 15,45.9
2'F-ANA at 1 2 3 6 7 9 12 13 14,90.9
2'F-ANA at 2 4 7 10 13,83.6
2'F-ANA at 3 6 9 10 11 14 15,341
2'F-ANA at 1 3 5 12 14 15,50
2'F-ANA at 1 2 8 10 11 13,46.5
2'F-ANA at 1 2 4 7 8 10 12 13 14 15,47.3
2'F-ANA at 1 6 7 12,382
2'F-ANA at 1 2 3 4 7 9 15,156
2'F-ANA at 2 4 7 9 11 14,94.1
2'F-ANA at 1 2 4 5 7 8 9 10 11 12,60.9
2'F-ANA at 1 2 3 4 5 8 9 11 13,52.9
2'F-ANA at 4 6 7 8 9 12 14 15,107
2'F-ANA at 1 3 4 5 6 8 9 11 13,100
2'F-ANA at 2 4 6 7 8 9 10 12,129

# Series 4 — technique: protein binding microarray; molecule type: double-stranded DNA, one strand shown; sample: in vitro; tested at: not given; relative to: not given; direction: higher = stronger binding
# Target: Histone acetyltransferase KAT6A, both winged helices, GST fusion (KAT6A, Homo sapiens, UniProt Q92794, residues 1-181)
# Notes: 8-mer, flanks averaged, mean of 2 arrays, mostly near background
# Target sequence (chain): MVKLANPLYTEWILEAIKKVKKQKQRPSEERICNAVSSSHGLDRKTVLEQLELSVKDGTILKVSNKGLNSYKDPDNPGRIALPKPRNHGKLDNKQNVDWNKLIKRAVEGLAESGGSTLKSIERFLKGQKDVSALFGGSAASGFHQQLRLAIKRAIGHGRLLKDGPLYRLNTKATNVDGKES
Oligonucleotide,E-score
TAGGCCGA,0.0158
CGCCTGTA,0.0641
AGTTCGCC,0.00424
GTCCACAA,-0.195
CAACCAAC,-0.102
ACGGCATG,0.274
AACACGCT,0.131
TCCCTTAA,-0.144
GGAAGCCC,0.0638
ATGTCACA,0.00611
CTGGCGCA,0.0929
ATGCTTCC,-0.162
CCAAGCGC,0.258
AGGACCTC,0.00147
CTAACGAG,-0.202
CAGTAGAA,-0.247
GAGTCTCC,3e-05
GCTCCAAC,0.0496
CGGAGGGC,0.168
GTGGACCA,-0.168
CGAACACA,0.0736

# Repeated from above (series 3):
Modification,mean fluorescence intensity [a.u.]
2'F-ANA at 1 2 4 7 8 10 12 13 14 15,47.3
2'F-ANA at 1 5 11 13,48
2'F-ANA at 1 3 5 12 14 15,50
2'F-ANA at 1 2 3 4 7 9 15,156
